Experimental data gathered from unrelated publications.
Protocols differ between the studies behind these lines.
UniProt O75116, sequence (whole entry, looked up): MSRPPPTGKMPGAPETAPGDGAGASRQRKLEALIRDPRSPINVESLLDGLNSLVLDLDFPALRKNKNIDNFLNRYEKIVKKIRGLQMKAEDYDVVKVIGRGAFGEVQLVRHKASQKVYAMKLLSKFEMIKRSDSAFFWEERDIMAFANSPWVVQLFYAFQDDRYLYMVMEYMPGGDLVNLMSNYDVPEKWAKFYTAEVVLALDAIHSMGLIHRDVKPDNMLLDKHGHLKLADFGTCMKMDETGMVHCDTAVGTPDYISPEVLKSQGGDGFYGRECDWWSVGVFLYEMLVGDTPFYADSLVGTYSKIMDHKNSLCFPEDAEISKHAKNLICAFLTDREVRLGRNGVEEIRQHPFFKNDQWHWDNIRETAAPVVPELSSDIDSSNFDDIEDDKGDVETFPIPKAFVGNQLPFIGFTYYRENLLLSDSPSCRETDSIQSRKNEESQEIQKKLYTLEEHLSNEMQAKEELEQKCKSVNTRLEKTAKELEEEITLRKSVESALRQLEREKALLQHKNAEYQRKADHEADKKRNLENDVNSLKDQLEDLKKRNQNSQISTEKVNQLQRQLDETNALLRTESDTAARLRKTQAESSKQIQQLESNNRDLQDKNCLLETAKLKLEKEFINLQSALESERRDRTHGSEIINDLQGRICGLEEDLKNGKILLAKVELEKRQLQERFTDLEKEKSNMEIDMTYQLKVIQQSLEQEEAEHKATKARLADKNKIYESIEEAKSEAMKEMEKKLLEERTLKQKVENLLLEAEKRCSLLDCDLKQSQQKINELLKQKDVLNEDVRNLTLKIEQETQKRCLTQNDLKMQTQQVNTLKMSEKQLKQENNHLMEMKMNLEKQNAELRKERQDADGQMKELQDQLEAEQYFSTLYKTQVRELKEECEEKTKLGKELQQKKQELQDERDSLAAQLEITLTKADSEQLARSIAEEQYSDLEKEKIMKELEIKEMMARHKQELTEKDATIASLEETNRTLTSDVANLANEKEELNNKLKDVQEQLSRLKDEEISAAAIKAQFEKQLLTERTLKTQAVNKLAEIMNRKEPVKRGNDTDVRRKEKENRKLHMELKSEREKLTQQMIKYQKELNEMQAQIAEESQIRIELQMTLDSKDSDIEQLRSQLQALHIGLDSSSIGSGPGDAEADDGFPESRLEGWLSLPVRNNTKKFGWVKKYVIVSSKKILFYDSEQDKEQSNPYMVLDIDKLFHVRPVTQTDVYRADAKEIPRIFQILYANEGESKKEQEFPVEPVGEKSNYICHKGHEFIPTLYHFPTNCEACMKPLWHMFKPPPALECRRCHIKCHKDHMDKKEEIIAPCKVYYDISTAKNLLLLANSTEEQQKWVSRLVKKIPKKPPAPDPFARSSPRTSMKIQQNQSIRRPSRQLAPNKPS

SMILES | target or system | assay | system | conditions | scale | quantity | value
Nc1ccc2cc3ccc(N)cc3nc2c1 | – | – | male CD-1 mouse, plasma | oral, 100 mg/kg | – | AUC(0-t) | 545 ng·h/mL
COc1cccc2c1CCCC2CCCN1CCN(C2CCCCC2)CC1 (stereo not shown) | – | – | CD-1 mouse, male, plasma | intraperitoneal, 10 mg/kg | – | AUC(0-t) | 228 ng·h/mL
CC(C)(C)[C@]1(O)CCN2C[C@H]3c4ccccc4CCc4cccc(c43)[C@@H]2C1 | Plasmodium falciparum | – | HB3 | – | – | IC50 | 5.01 µM
C=CC[N+]1([C@H]2C[C@H]3[C@@H]4CC[C@H]5C[C@H](O)[C@@H](N6CCOCC6)C[C@]5(C)[C@H]4CC[C@]3(C)[C@H]2OC(C)=O)CCCC1 | – | – | Sprague Dawley rat, plasma | intravenous, 0.2 mg/kg, added: vehicle IV | – | AUC(0-t) | 38 ng·h/mL
COc1cc2c(cc1OC)CN(CCc1ccc(NC(=O)c3cccc4c(=O)c5cccc(OC)c5[nH]c34)cc1)CC2 | – | – | CD-1 mouse, male, plasma | intraperitoneal, 1 mg/kg | – | AUC(0-t) | 965 ng·h/mL
NC(=O)c1cccc(-c2cc(OC(=O)NC3CCCCC3)ccc2O)c1 | – | – | mouse, plasma | intravenous, 10 mg/kg, 0 to 24 h | – | AUC(0-t) | 4860 ng·h/mL
CN[C@H]1CC[C@@H](c2ccc(Cl)c(Cl)c2)c2ccccc21 | – | – | CD-1 mouse, male, plasma | intraperitoneal, 10 mg/kg | – | AUC(0-t) | 685 ng·h/mL
Cc1[nH]c(C)c(S(=O)(=O)Nc2ccc(S(F)(F)(F)(F)F)cc2)c1C(=O)N1CCC(F)(F)C1 | – | – | mouse, brain | intraperitoneal, 40 mg/kg | – | AUC(0-t) | 24300 ng·h/g
CO[C@H]1C[C@@H]2CC[C@@H](C)[C@@](O)(O2)C(=O)C(=O)N2CCCC[C@H]2C(=O)O[C@H]([C@H](C)C[C@@H]2CC[C@@H](OC(=O)NCCOCCOCCOCCOCCOCCOCCOCCOCCC(=O)N3CCc4cc(Cn5nc(-c6ccc7oc(N)nc7c6)c6c(N)ncnc65)ccc4C3)[C@H](OC)C2)C[C@@H](O)[C@H](C)/C=C(\C)[C@@H](O)[C@@H](OC)C(=O)[C@H](C)C[C@H](C)/C=C/C=C/C=C/1C | – | – | patients with advanced solid tumours | intravenous, 12 mg weekly, any grade | – | AE leading to dose interruption | 58.3%
C[C@H]1CN(c2n[nH]c3nc(N[C@H]4CC[C@H](NS(=O)(=O)CCC(F)(F)F)CC4)ncc23)CCO1 | Rho-associated protein kinase 2 (ROCK2, Homo sapiens, UniProt O75116) | inhibitor, Kinobeads competition profiling | – | 20 µM | reference: vehicle | relative abundance | 1.08
NC(=NCc1ccccc1)NC(=O)c1nc(Cl)c(N)nc1N | Plasmodium falciparum | – | GB4 | – | – | IC50 | 3.16 µM
CC(=O)c1c(C)c2cnc(Nc3ccc(C4CCN(CCS(C)(=O)=O)CC4)cn3)nc2n(C2CCCC2)c1=O | – | – | human, dose-escalation trial, plasma | oral, 25 mg twice daily, day 21, multiple doses | – | AUC(0-t) | 1030 ng·h/mL
Cc1ccccc1C(=O)NN=Cc1ccc(O)c(Br)c1 | – | – | C3H/HeN mouse IN model, plasma | intravenous, 1.6 mg/kg | – | AUC(0-t) | 325 ng·h/mL
